Measurements from different studies.
Compare with care: the assays were run in different laboratories. Numbers after ± are the reported error.

`COc1cc(O)ccc1-c1c[nH]c2ncc(-c3cncc(C(=O)N(C)C)c3)cc12` gave a GI50 of 0.253 ± 0.051 µM (Ba/F3 BCR-ABL T315I; cell proliferation; 72 h).
`CC(C)Cc1ccc(C(C)C(=O)[Se]CC(=O)Nc2cccc(C(F)(F)F)c2)cc1` (stereo not drawn) has a GI50 of 1.78 µM (NCI60 NSCLC subpanel; NCI60 five-dose screen).
`C=CC(=O)Nc1ccc(OC)c(-c2c[nH]c3ncc(-c4cncc(C(=O)N(C)C)c4)cc23)c1` has a GI50 of > 1 µM (Ba/F3 BCR-ABL T315I; cell proliferation; 72 h).
For `[Cl-].[Cl-].[Ru+2].c1ccc(-c2ccccn2)nc1.c1ccc(-c2ccccn2)nc1.c1ccc2cc3nc4c5cccnc5c5ncccc5c4nc3cc2c1`, the GI50 was 0.195 µM (SK-MEL-28; sulforhodamine B; normoxia, with: red light 633 nm).
`O=C(C[Se]C(=O)c1cc2ccccc2o1)Nc1cccc(C(F)(F)F)c1` gave a GI50 of 1.62 µM (NCI60 NSCLC subpanel; NCI60 five-dose screen).
For `O=C(Cc1ccc2ccccc2c1)N[C@H](Cc1ccccc1)C(=O)N[C@H](Cc1ccccc1)C(=O)N[C@H](Cc1ccc(OP(=O)(O)O)cc1)C(=O)O`, the GI50 was 572 µM (HS5; cell growth or viability, MTT).
`COc1ccc(OC(C)=O)cc1-c1c[nH]c2ncc(-c3cncc(C(=O)N(C)C)c3)cc12` gave a GI50 of 0.139 ± 0.049 µM (Ba/F3 BCR-ABL T315I; cell proliferation; 72 h).
`O=C(C[Se]C(=O)c1ccccc1Nc1ccccc1)Nc1cccc(C(F)(F)F)c1` gave a GI50 of 1.71 µM (NCI60 NSCLC subpanel; NCI60 five-dose screen).
For `CCN(C(=O)c1cc(F)ccc1Oc1nncnc1N1CCC2(C1)CN([C@H](CCCN(C)CCOC)C(C)C)C2)C(C)C`, the GI50 was > 10 µM (WSU-NHL; cell growth or viability; 7 days).
